Results from different studies.
Lines come from different studies, so protocols differ. ± gives the spread as reported.

O=C(O)c1ccc(C(=O)Nc2cc(C3CC3)n[nH]2)cc1  logP (octanol/buffer, 40 mM buffer; pH 11): -1.3
C=CCN1CC(=O)N2[C@@H](Cc3ccc(O)cc3F)C(=O)N(Cc3cccc(N4CC(N5CCN(CC)CC5)C4)n3)C[C@@H]2N1C(=O)NCc1ccccc1  treatment-related adverse events (refers to: Diarrhea; advanced solid tumour patients; all doses, expansion part, any grade): 21.1%
C[C@@H](Cn1ccc(-c2ccc(C#N)c(Cl)c2)n1)NC(=O)c1cc([C@@H](C)O)[nH]n1  Vd/F (human, fasted; oral, 300 mg darolutamide tablet, geometric mean): 1.22e+06 mL
NC1(C(=O)N[C@@H](CCO)c2ccc(Cl)cc2)CCN(c2nc[nH]c3nccc2-3)CC1  incidence of Blindness (metastatic CRPC patients; 480 mg b.i.d., any grade, treatment-related, together with: enzalutamide 160 mg daily): 0%
Cc1cc(C)c(CNC(=O)c2cc(Cl)c3c(c2C)O[C@@](C)([C@H]2CC[C@H](N(C)C)CC2)O3)c(=O)[nH]1  patients with grade ≥3 TEAE (CTCAE v4.0, refers to: rash maculo-papular; human relapsed/refractory NHL; oral, 200 mg once daily, onset after cycle 1 day 1, overall treatment period): 4.2%
N#CCC1CCN(c2nc(Nc3ccc(N4CCC(O)CC4)cc3)c3c(=O)[nH]ncc3n2)CC1  AUC(0-24 h) (human, plasma; oral, 40 mg once daily, day 1): 1410 ng·h/mL
Cc1cccc(CNC(=O)c2cn(CCNC(=O)c3ccccc3Sc3c([N+](=O)[O-])ncn3C)c3cc4c(cc3c2=O)OCO4)n1  remaining compound (cynomolgus monkey, whole blood; 1 µM, 2 h): 78.4%
Nc1ccn([C@@H]2CS[C@H](CO)O2)c(=O)n1  drug concentration (Tat- transgenic mouse, striatum; subcutaneous osmotic pump, dose not given, 5 d): 25900 ± 3500 ng/g
Cc1cc(NC2CCN(C(=O)OC3CCN(C(=O)/C=C/CN(C)C)C3)CC2)n2ncc(C(C)C)c2n1 (centres unmarked)  patients with TEAE (CTCAE v4.0, refers to: Diarrhea; patients with advanced solid tumours; oral, dose not given, all schedules, grade 3 or higher): 4%
O=C(Nc1nc2cccc(-c3ccc(CN4CCS(=O)(=O)CC4)cc3)n2n1)C1CC1  patients with Diarrhea (rheumatoid arthritis patients; oral, 100 mg twice daily, 4 weeks, TEAE regardless of relatedness): 0%
CCN1/C(=C/C(C)=O)Sc2ccc(F)cc21  mean blood pressure change (cynomolgus monkey; oral, 100 mg/kg, 0.5 h post-dose; relative to: pre-dose): 101 ± 6.4%
OCc1nc2ccc(NCc3ccc(C(F)(F)F)cc3)cc2[nH]1  scaled intrinsic clearance (human liver S9; 1 µM, pH 7.4): 644 mL/min
C=CC(=O)NC1CCN(c2ncc3ncnc(Nc4ccc(Oc5ccc6c(c5)ncn6C)c(C)c4)c3n2)CC1  dose-normalised Cmax (healthy male volunteers, plasma; intravenous, 10 µg, [14C] microtracer): 63.5 pmol/L/µg
N#Cc1ccc2c(c1)[C@H]1CCCN(C(=O)c3ccc4[nH]cnc4c3)[C@H]1C2  median ACTH level (human; 360 mg, day 15): 8 pmol/L
CC(=O)c1cccc(NC(=O)CSc2nnc(-c3cc4ccccc4cc3O)n2C)c1  logP (octanol/buffer; pH 11): 1.48
CC(=O)c1ccc([C@H]2C[C@@]3(C)[C@@H](CC[C@@]3(O)C(F)(F)C(F)(F)F)[C@@H]3CCC4=CC(=O)CCC4=C32)cc1  serum concentration (human, pooled serum; oral, 200 mg, day 1, 0 h): 5.7 ng/mL
Nc1nc2c(nc([N+](=O)[O-])n2[C@@H]2O[C@H](CO)[C@@H](O)[C@H]2O)c(=O)[nH]1  nucleoside remaining fraction (depurination, RP-HPLC; citrate-phosphate buffer 0.5 mM; 2585 min, pH 7, 37 °C): 0.258
COc1cc2c(cc1OC)C(=O)C(CC1CCN(Cc3ccccc3)CC1)C2 (centres unmarked)  saliva production (dental rolls; human subjects; dose not given; relative to: placebo): -0.345 g
CCN1CCN(Cc2ccc(Nc3ncc(F)c(-c4cc(F)c5nc6n(c5c4)[C@H](C)CCC6)n3)nc2)CC1  Vd/F (human, plasma; 200 mg single dose, mean): 1.63e+06 mL
CC1(CNC(=O)[C@H](CN)NC(=O)c2ccc(C#Cc3ccccc3)cc2)NC(=O)NC1=O (some centres unmarked)  logP (octanol/buffer; pH 11): 0.62

For quick reference, copied from above:
COc1cc2c(cc1OC)C(=O)C(CC1CCN(Cc3ccccc3)CC1)C2 (centres unmarked)  saliva production (dental rolls; human subjects; dose not given; relative to: placebo): -0.345 g
OCc1nc2ccc(NCc3ccc(C(F)(F)F)cc3)cc2[nH]1  scaled intrinsic clearance (human liver S9; 1 µM, pH 7.4): 644 mL/min
